Measurements gathered from unrelated publications.
Protocols differ between the studies behind these lines. pEC50, pIC50: −log10 of the molar value.
Target: histidine kinase ComD (Streptococcus pneumoniae serotype 2, UniProt A0A0H2ZM50)
Organism: Streptococcus pneumoniae
Residues used in one study (A0A0H2ZM50 1-441): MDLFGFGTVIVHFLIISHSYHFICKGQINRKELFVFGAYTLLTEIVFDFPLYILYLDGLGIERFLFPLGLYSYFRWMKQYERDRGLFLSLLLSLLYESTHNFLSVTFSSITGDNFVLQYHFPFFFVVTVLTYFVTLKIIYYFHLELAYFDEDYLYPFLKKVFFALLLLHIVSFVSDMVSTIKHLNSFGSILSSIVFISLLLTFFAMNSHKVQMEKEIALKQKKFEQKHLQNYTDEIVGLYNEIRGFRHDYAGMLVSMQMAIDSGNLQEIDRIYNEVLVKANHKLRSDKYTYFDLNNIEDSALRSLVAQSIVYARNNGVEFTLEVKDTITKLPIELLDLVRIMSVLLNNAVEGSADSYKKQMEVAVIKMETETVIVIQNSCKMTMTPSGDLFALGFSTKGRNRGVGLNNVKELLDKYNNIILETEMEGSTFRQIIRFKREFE

SMILES = CC[C@H](C)[C@H](NC(=O)[C@H](Cc1ccccc1)NC(=O)[C@H](C)NC(=O)[C@H](C)NC(=O)[C@H](Cc1ccccc1)NC(=O)[C@H](Cc1ccccc1)NC(=O)[C@H](C)NC(=O)[C@H](C)NC(=O)[C@H](CC(C)C)NC(=O)[C@H](CCCNC(=N)N)NC(=O)[C@H](CCSC)NC(=O)[C@@H](N)CCC(=O)O)C(=O)N[C@@H](C)C(=O)N[C@@H](C)C(=O)N[C@@H](CCCNC(=N)N)C(=O)N[C@@H](CCCCN)C(=O)N[C@@H](CCCCN)C(=O)O; endpoint = pEC50; value = < 6.00
SMILES = CC[C@H](C)[C@H](NC(=O)[C@H](Cc1ccccc1)NC(=O)[C@H](CCCNC(=N)N)NC(=O)[C@H](CO)NC(=O)[C@H](CC(C)C)NC(=O)[C@H](CCCNC(=N)N)NC(=O)[C@H](CCSC)NC(=O)[C@@H](N)CCC(=O)O)C(=O)N[C@@H](CC(C)C)C(=O)N[C@@H](CC(=O)O)C(=O)N[C@@H](Cc1ccccc1)C(=O)N[C@@H](CC(C)C)C(=O)N[C@@H](Cc1ccccc1)C(=O)N[C@@H](CC(C)C)C(=O)N[C@@H](CCCNC(=N)N)C(=O)O; endpoint = pEC50; value = < 6.00
SMILES = CC[C@H](C)[C@H](NC(=O)[C@H](C)N)C(=O)N[C@@H](CCCNC(=N)N)C(=O)N[C@@H](CCC(N)=O)C(=O)N[C@H](C(=O)N[C@@H](Cc1c[nH]cn1)C(=O)N[C@@H](CC(N)=O)C(=O)N[C@H](C(=O)N[C@@H](Cc1ccccc1)C(=O)N[C@@H](Cc1ccccc1)C(=O)N[C@@H](Cc1ccccc1)C(=O)N[C@@H](CC(C)C)C(=O)N[C@@H](Cc1ccccc1)C(=O)N[C@@H](CCCCN)C(=O)N[C@@H](CCCNC(=N)N)C(=O)N[C@@H](CCCNC(=N)N)C(=O)O)[C@@H](C)CC)[C@@H](C)O; assay = reporter gene, antagonist; test system = D39 comX::lacZ; setting = 30 min, 37 °C, together with: CSP1 50 nM; endpoint = pIC50; value = < 5.00
SMILES = CC[C@H](C)[C@H](NC(=O)[C@H](Cc1ccccc1)NC(=O)[C@@H]1CNC(=O)NCCC[C@H](NC(=O)[C@H](CO)NC(=O)[C@H](CC(C)C)NC(=O)[C@H](CCCNC(=N)N)NC(=O)[C@H](CCSC)NC(=O)[C@H](C)N)C(=O)N[C@@H](Cc2ccccc2)C(=O)N[C@@H](Cc2ccccc2)C(=O)N[C@@H](CCCNC(=N)N)C(=O)N1)C(=O)N[C@@H](CC(C)C)C(=O)N[C@@H](CCC(N)=O)C(=O)N[C@@H](CCCNC(=N)N)C(=O)N[C@@H](CCCCN)C(=O)N[C@@H](CCCCN)C(=O)O; test system = Streptococcus pneumoniae cells; endpoint = pIC50; value = < 6.00
SMILES = CC[C@H](C)[C@H](NC(=O)[C@@H](N)CCC(=O)O)C(=O)N[C@@H](CCCNC(=N)N)C(=O)N[C@@H](CCC(N)=O)C(=O)N[C@H](C(=O)N[C@@H](Cc1c[nH]cn1)C(=O)N[C@@H](Cc1ccccc1)C(=O)N[C@@H](Cc1ccccc1)C(=O)N[C@@H](Cc1ccccc1)C(=O)N[C@@H](Cc1ccccc1)C(=O)N[C@@H](Cc1ccccc1)C(=O)N[C@@H](Cc1ccccc1)C(=O)N[C@@H](Cc1ccccc1)C(=O)N[C@@H](CCCCN)C(=O)N[C@@H](CCCNC(=N)N)C(=O)N[C@@H](CCCNC(=N)N)C(=O)O)[C@@H](C)O; assay = reporter gene, agonist; test system = D39 comX::lacZ; setting = 30 min, pH 7.3, 37 °C; endpoint = pEC50; value = < 5.00
SMILES = CC[C@H](C)[C@H](NC(=O)[C@H](Cc1ccccc1)NC(=O)[C@@H]1CCCNC(=O)NCCC[C@H](NC(=O)[C@H](CO)NC(=O)[C@H](CC(C)C)NC(=O)[C@H](CCCNC(=N)N)NC(=O)[C@H](CCSC)NC(=O)[C@H](C)N)C(=O)N[C@@H](Cc2ccccc2)C(=O)N[C@@H](Cc2ccccc2)C(=O)N[C@@H](CCCNC(=N)N)C(=O)N1)C(=O)N[C@@H](CC(C)C)C(=O)N[C@@H](CCC(N)=O)C(=O)N[C@@H](CCCNC(=N)N)C(=O)N[C@@H](CCCCN)C(=O)N[C@@H](CCCCN)C(=O)O; test system = Streptococcus pneumoniae cells; endpoint = pIC50; value = < 6.00
SMILES = CC[C@H](C)[C@H](NC(=O)[C@H](Cc1ccccc1)NC(=O)[C@H](C)NC(=O)[C@H](C)NC(=O)[C@H](Cc1ccccc1)NC(=O)[C@H](Cc1ccccc1)NC(=O)[C@H](C)NC(=O)[C@H](C)NC(=O)[C@H](CC(C)C)NC(=O)[C@H](CCCNC(=N)N)NC(=O)[C@H](CCSC)NC(=O)[C@@H](N)CCC(=O)O)C(=O)N[C@@H](CC(C)C)C(=O)N[C@@H](C)C(=O)N[C@@H](CCCNC(=N)N)C(=O)N[C@@H](CCCCN)C(=O)N[C@@H](CCCCN)C(=O)O; endpoint = pEC50; value = < 6.00
SMILES = CC[C@H](C)[C@H](NC(=O)[C@H](CC(N)=O)NC(=O)[C@H](Cc1c[nH]cn1)NC(=O)[C@@H](NC(=O)[C@H](CCC(N)=O)NC(=O)[C@H](CCCNC(=N)N)NC(=O)[C@H](CCSC)NC(=O)[C@H](C)N)[C@@H](C)O)C(=O)N[C@@H](Cc1ccccc1)C(=O)N[C@@H](Cc1ccccc1)C(=O)N[C@@H](CC(N)=O)C(=O)N[C@@H](CC(C)C)C(=O)N[C@@H](Cc1ccccc1)C(=O)N[C@@H](CCCCN)C(=O)N[C@@H](CCCNC(=N)N)C(=O)N[C@@H](CCCNC(=N)N)C(=O)O; assay = reporter gene, antagonist; test system = D39 comX::lacZ; setting = 30 min, 37 °C, together with: CSP1 50 nM; endpoint = pIC50; value = < 5.00
SMILES = CC[C@H](C)[C@H](NC(=O)[C@H](Cc1ccccc1)NC(=O)[C@@H]1CCCNC(=O)NCC[C@H](NC(=O)[C@H](CO)NC(=O)[C@H](CC(C)C)NC(=O)[C@H](CCCNC(=N)N)NC(=O)[C@H](CCSC)NC(=O)[C@H](C)N)C(=O)N[C@@H](Cc2ccccc2)C(=O)N[C@@H](Cc2ccccc2)C(=O)N[C@@H](CCCNC(=N)N)C(=O)N1)C(=O)N[C@@H](CC(C)C)C(=O)N[C@@H](CCC(N)=O)C(=O)N[C@@H](CCCNC(=N)N)C(=O)N[C@@H](CCCCN)C(=O)N[C@@H](CCCCN)C(=O)O; test system = Streptococcus pneumoniae cells; endpoint = pIC50; value = < 6.00
SMILES = CCC[C@H](NC(=O)[C@H](CCCNC(=N)N)NC(=O)[C@H](CCSC)NC(=O)[C@H](C)N)C(=O)N[C@@H](CO)C(=O)N[C@@H](CCCNC(=N)N)C(=O)N[C@H](C(=O)N[C@@H](Cc1ccccc1)C(=O)N[C@@H](CCCNC(=N)N)C(=O)N[C@H](CC(=O)O)C(=O)N[C@@H](Cc1ccccc1)C(=O)N[C@@H](CC(C)C)C(=O)N[C@@H](CC(C)C)C(=O)N[C@@H](CCC(N)=O)C(=O)N[C@@H](CCCNC(=N)N)C(=O)N[C@@H](CCCCN)C(=O)N[C@@H](CCCCN)C(=O)O)[C@@H](C)CC; endpoint = pIC50; value = < 6.00

For quick reference, copied from above:
SMILES = CC[C@H](C)[C@H](NC(=O)[C@H](Cc1ccccc1)NC(=O)[C@H](CCCNC(=N)N)NC(=O)[C@H](CO)NC(=O)[C@H](CC(C)C)NC(=O)[C@H](CCCNC(=N)N)NC(=O)[C@H](CCSC)NC(=O)[C@@H](N)CCC(=O)O)C(=O)N[C@@H](CC(C)C)C(=O)N[C@@H](CC(=O)O)C(=O)N[C@@H](Cc1ccccc1)C(=O)N[C@@H](CC(C)C)C(=O)N[C@@H](Cc1ccccc1)C(=O)N[C@@H](CC(C)C)C(=O)N[C@@H](CCCNC(=N)N)C(=O)O; endpoint = pEC50; value = < 6.00
